Measured values collected from several papers.
A part holds a random share of what one study measured.
UniProt P42336, sequence (whole entry, unmodified, looked up): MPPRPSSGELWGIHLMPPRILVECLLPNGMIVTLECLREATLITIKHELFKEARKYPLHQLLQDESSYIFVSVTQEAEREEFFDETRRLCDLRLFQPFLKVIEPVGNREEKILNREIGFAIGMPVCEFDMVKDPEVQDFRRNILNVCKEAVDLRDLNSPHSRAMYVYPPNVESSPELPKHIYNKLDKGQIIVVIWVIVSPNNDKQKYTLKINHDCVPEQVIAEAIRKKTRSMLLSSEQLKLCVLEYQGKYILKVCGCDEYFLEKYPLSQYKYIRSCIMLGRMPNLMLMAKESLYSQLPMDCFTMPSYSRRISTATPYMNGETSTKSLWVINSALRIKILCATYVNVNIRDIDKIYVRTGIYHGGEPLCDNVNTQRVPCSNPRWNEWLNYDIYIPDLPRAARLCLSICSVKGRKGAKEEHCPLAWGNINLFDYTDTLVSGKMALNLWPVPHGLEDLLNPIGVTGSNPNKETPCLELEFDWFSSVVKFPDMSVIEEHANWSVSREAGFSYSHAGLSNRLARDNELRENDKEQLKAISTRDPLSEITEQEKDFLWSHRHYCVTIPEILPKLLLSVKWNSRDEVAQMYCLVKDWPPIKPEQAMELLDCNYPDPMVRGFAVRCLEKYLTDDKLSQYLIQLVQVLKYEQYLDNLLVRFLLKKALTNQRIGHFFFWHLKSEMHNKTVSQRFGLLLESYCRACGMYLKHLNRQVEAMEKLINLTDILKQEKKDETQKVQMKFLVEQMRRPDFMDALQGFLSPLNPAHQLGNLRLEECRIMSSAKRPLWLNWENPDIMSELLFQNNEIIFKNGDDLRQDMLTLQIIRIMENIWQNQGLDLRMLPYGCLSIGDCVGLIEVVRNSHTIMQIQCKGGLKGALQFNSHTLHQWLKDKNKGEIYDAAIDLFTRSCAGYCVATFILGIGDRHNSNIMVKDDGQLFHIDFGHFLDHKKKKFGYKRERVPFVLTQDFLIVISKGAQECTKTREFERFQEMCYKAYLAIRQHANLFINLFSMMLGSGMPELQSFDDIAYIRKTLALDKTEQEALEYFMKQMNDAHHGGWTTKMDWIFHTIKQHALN
UniProt Q9HBH9, sequence (whole entry, looked up): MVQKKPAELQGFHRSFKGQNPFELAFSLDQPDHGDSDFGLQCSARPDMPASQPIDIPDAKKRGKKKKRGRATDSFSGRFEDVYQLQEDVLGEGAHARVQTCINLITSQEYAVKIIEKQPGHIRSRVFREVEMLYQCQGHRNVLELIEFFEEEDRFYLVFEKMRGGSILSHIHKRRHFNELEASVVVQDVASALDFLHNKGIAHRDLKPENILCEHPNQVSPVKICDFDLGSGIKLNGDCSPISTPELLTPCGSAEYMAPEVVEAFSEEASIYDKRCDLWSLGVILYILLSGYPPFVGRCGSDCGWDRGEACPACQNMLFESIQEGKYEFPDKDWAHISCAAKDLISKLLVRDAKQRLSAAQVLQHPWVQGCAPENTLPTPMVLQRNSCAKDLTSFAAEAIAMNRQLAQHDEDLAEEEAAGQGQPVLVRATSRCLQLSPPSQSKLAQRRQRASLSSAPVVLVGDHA
UniProt P52564, sequence (whole entry, looked up): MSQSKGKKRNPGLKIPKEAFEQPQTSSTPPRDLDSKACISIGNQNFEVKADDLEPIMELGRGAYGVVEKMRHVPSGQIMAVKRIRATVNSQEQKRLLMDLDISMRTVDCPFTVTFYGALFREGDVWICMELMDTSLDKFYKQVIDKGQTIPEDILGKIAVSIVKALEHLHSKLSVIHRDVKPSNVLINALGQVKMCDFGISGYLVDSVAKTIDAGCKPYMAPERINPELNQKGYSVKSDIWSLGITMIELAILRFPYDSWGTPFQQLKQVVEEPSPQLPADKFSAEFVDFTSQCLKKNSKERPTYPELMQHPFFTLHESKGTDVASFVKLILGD
UniProt O15264, sequence (whole entry, looked up): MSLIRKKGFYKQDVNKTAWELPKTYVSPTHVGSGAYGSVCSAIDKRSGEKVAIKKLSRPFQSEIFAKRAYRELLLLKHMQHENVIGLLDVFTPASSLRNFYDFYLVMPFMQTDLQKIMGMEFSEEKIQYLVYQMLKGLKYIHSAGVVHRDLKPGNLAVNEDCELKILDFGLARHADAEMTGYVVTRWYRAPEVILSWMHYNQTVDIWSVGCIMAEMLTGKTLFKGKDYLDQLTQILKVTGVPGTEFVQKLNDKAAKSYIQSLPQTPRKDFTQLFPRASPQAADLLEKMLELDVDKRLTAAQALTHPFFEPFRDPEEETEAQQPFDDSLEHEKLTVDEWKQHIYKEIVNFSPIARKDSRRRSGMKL
UniProt P29597, sequence (whole entry, looked up): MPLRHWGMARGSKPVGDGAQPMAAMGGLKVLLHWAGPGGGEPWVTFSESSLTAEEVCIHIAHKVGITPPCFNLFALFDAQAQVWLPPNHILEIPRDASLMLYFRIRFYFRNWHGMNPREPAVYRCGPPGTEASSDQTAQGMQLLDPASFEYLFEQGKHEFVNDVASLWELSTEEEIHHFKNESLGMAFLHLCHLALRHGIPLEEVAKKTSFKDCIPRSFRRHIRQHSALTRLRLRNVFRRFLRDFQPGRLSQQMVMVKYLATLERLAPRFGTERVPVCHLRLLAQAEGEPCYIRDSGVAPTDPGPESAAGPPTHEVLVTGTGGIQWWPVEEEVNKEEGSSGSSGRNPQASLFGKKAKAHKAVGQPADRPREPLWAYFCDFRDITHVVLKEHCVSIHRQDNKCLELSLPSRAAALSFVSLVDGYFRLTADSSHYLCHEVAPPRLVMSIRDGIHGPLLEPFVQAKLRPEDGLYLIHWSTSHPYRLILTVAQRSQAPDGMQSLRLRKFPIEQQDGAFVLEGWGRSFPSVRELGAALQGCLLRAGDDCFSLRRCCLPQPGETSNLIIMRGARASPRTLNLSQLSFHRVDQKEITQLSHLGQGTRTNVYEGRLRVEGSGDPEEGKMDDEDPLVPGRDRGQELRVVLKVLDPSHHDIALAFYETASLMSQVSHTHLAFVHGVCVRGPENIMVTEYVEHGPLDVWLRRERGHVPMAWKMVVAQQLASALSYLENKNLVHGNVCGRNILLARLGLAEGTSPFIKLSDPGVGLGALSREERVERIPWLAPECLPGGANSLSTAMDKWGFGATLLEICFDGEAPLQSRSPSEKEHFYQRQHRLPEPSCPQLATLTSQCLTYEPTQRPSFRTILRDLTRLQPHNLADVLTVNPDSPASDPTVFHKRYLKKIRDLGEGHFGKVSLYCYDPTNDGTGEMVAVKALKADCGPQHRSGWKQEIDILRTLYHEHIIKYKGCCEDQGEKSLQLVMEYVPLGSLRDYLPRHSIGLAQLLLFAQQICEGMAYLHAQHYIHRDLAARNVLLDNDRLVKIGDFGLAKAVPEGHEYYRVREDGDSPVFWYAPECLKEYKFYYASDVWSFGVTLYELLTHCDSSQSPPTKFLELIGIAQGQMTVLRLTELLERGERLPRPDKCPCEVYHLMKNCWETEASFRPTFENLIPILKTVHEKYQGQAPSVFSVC
UniProt Q9NWZ3, sequence (whole entry, looked up): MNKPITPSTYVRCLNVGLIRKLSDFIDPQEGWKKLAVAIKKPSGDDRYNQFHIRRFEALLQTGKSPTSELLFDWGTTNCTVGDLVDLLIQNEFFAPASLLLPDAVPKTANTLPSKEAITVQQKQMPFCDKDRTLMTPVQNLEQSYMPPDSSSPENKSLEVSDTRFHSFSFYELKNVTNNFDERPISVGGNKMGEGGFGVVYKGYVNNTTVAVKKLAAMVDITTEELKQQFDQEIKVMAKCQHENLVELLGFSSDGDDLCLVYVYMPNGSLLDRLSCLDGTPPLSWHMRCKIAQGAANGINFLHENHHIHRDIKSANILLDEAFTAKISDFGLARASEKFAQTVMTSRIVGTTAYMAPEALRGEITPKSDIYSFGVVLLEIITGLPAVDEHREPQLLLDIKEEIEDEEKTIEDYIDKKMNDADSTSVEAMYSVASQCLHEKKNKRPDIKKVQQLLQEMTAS
UniProt Q9UK32, sequence (whole entry, looked up): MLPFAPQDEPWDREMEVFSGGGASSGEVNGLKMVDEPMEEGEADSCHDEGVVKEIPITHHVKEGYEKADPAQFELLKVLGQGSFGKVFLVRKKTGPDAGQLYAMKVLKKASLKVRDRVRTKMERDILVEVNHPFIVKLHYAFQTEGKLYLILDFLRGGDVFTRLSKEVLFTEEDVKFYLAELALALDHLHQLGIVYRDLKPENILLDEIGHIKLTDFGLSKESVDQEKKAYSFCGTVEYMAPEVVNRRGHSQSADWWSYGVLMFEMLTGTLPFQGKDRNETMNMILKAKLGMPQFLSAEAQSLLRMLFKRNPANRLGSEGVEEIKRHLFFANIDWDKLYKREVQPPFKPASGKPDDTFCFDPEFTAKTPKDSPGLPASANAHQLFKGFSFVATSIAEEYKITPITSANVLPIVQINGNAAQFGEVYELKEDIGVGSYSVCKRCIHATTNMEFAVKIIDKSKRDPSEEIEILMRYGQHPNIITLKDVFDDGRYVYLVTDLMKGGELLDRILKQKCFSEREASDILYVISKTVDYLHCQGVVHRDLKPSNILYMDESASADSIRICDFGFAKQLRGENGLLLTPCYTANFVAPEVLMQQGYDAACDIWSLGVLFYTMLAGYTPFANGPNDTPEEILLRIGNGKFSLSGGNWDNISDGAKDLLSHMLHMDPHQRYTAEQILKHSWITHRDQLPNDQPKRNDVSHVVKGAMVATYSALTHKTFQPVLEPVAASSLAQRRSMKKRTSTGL
UniProt P53778, sequence (whole entry, looked up): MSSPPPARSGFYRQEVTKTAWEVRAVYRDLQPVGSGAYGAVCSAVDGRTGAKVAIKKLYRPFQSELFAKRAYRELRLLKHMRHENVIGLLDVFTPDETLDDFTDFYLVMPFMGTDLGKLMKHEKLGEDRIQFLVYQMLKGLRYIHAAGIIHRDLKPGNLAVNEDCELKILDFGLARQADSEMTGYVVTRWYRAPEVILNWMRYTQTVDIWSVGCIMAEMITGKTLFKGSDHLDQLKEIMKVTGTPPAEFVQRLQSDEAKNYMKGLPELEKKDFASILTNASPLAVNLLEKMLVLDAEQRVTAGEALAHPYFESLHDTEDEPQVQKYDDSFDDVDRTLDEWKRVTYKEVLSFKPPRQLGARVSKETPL

Sample 1 — cell line: A-375; concentration: 100 µM; time: 18 h
Structure (SMILES) | viability [%]
CCOc1nc2cccc(C(=O)OC(C)OC(=O)OC3CCCCC3)c2n1Cc1ccc(-c2ccccc2-c2nnn[nH]2)cc1 (centres unmarked) | 10.8
CC(C)NCC(O)COc1ccc(CCOCC2CC2)cc1 (centres unmarked) | 95.6
O=C(O)CCCCCCCC(=O)O | 105
Nc1ccn([C@@H]2O[C@H](CO)[C@@H](O)C2(F)F)c(=O)n1 | 69
NC(=O)Cc1cccc(C(=O)c2ccccc2)c1N | 89.3
C/C(=C\C(=O)OCCCCCCCCC(=O)O)C[C@@H]1OC[C@H](C[C@@H]2O[C@H]2[C@@H](C)[C@H](C)O)[C@@H](O)[C@H]1O | 92.5
CC(=O)N(CC(O)CO)c1c(I)c(C(=O)NCC(O)CO)c(I)c(C(=O)NCC(O)CO)c1I (mixture of isomers) | 94.5
CC1(C)NC(=O)N(c2ccc([N+](=O)[O-])c(C(F)(F)F)c2)C1=O | 89.5
CCN[C@H]1CN(CCCOC)S(=O)(=O)c2sc(S(N)(=O)=O)cc21 | 91.4
CO[C@]12C[C@@H](COC(=O)c3cncc(Br)c3)CN(C)[C@@H]1Cc1cn(C)c3cccc2c13 | 10.3
O=C(Nc1ccccc1)c1ccccc1O | 41.5
O=C(/C=C/c1cccc(S(=O)(=O)Nc2ccccc2)c1)NO | 36.8
N[C@@H](CC(=O)N1CCn2c(nnc2C(F)(F)F)C1)Cc1cc(F)c(F)cc1F | 81.7
O=C(O)c1ccccc1OP(=O)(O)O | 90.4
CC1=C(/C=C/C(C)=C/C=C/C(C)=C\C(=O)O)C(C)(C)CCC1 | 90.6

Sample 2 — effect on: cell-free assay; technique: competition with immobilised ligand; concentration: 1 µM
SMILES: CNCc1ccccc1-c1csc([C@@H](C)Nc2nc(C)nc3cc(OC)c(OC)cc23)c1
target | remaining binding [%]
EGFR (Homo sapiens, UniProt P00533, L861Q) | 97
CDK18 (Homo sapiens, UniProt Q07002) | 100
Ribosomal protein S6 kinase alpha-3, N-terminal kinase domain (RPS6KA3, Homo sapiens, UniProt P51812) | 80
EGFR (Homo sapiens, UniProt P00533, del746-750) | 100
CHUK (Homo sapiens, UniProt O15111) | 100
CDK7 (Homo sapiens, UniProt P50613) | 63
PIK3CA (Homo sapiens, UniProt P42336, Q546K) | 89
CHEK2 (Homo sapiens, UniProt O96017) | 76
EPHA8 (Homo sapiens, UniProt P29322) | 100
PLK4 (Homo sapiens, UniProt O00444) | 74
Non-receptor tyrosine-protein kinase TYK2, JH1 (TYK2, Homo sapiens, UniProt P29597) | 99
Ribosomal protein S6 kinase alpha-6, N-terminal kinase domain (RPS6KA6, Homo sapiens, UniProt Q9UK32) | 85
FLT3 (Homo sapiens, UniProt P36888, D835V) | 70
EGFR (Homo sapiens, UniProt P00533, T790M) | 68
Tyrosine-protein kinase ABL1, phosphorylated (ABL1, Homo sapiens, UniProt P00519, H396P) | 93

Sample 3 — cell line: mouse MPNST tumor cells; technique: high-content nuclear imaging; refers to: cell number; concentration: 10 µM; time: 12 h; setting: mean of 2 replicates; baseline: plate mean; reading: higher = more cells
Compound | nuclei count
CCCCn1c(-c2ccccc2)nc(-c2ccccc2)c1CN(Cc1ccc2c(c1)OCO2)Cc1ccc2c(c1)OCO2 | 3.03 z-score
CC(=O)NCCNc1cc(Cl)nn2c(-c3cccc(S(=O)(=O)N(C)C)c3)c(C)nc12 | 0.237 z-score
Cc1c(NC(=O)OC[C@@H]2COCCN2)cn2ncnc(Nc3ccc4c(cnn4Cc4cccc(F)c4)c3)c12 | -0.398 z-score
Cc1c(OCc2cccc(-c3ccc(C(=O)O)cc3)c2)cc2c(c1C)C(=O)C(C1CCCC1)C2 (centres unmarked) | 2.8 z-score
CNc1cc2c(Nc3cccc(Br)c3)ncnc2cn1 | 0.782 z-score
O=C(Cn1ccnc1[N+](=O)[O-])NCCO | 1.59 z-score
O=C(Nc1ccccc1C(=O)Nc1ccc(CCO)cc1)c1ccc([N+](=O)[O-])cc1 | 2.62 z-score
CN(C)CCOC(C)(c1ccccc1)c1ccccn1 (centres unmarked) | 1.75 z-score
N#Cc1ccc(-c2ccc(S(=O)(=O)Nc3cccc(N)n3)cc2)cc1 | 0.315 z-score
COc1ccc(C(=O)c2ccccc2)c(O)c1 | 1.41 z-score

Sample 4 — effect on: enzyme activity; mode: inhibitor; concentration: 0.5 µM; baseline: control
Structure (SMILES): CC(C)c1nn(-c2c(Cl)cccc2Cl)c2nc(Cc3ccc(OCCO)cc3)[nH]c(=O)c12
target | remaining activity [%]
CHEK1 (Homo sapiens, UniProt O14757) | 96.2
NEK4 (Homo sapiens, UniProt P51957) | 96.3
BTK (Homo sapiens, UniProt Q06187) | 100
Cyclin-dependent kinase 9, with cyclin T1 (CDK9, Homo sapiens, UniProt P50750) | 22.7
IRAK4 (Homo sapiens, UniProt Q9NWZ3) | 112
MAPK12 (Homo sapiens, UniProt P53778) | 103
LYN (Homo sapiens, UniProt P07948) | 102
CSNK1A1 (Homo sapiens, UniProt P48729) | 99
MAPK13 (Homo sapiens, UniProt O15264) | 104
EPHA5 (Homo sapiens, UniProt P54756) | 110
WNK2 (Homo sapiens, UniProt Q9Y3S1) | 95.7
PRKCI (Homo sapiens, UniProt P41743) | 95.2
PRKG1 (Homo sapiens, UniProt Q13976) | 92.3
KIT (Homo sapiens, UniProt P10721) | 71
MKNK2 (Homo sapiens, UniProt Q9HBH9) | 88.9
CSNK2A1 (Homo sapiens, UniProt P68400) | 88.8
MAP4K2 (Homo sapiens, UniProt Q12851) | 106
PRKCD (Homo sapiens, UniProt Q05655) | 108
LRRK2 (Homo sapiens, UniProt Q5S007) | 109
PLK2 (Homo sapiens, UniProt Q9NYY3) | 99.8
MAP3K10 (Homo sapiens, UniProt Q02779) | 90.3
MAP2K6 (Homo sapiens, UniProt P52564) | 92.7

Some of these lines once more (sample 4):
target | remaining activity [%]
MAPK13 (Homo sapiens, UniProt O15264) | 104
EPHA5 (Homo sapiens, UniProt P54756) | 110
MAPK12 (Homo sapiens, UniProt P53778) | 103
LYN (Homo sapiens, UniProt P07948) | 102
PRKG1 (Homo sapiens, UniProt Q13976) | 92.3
